Assay results pooled from the literature.
A part holds a random share of what one study measured. Positions count from the first letter of the parent shown.

Sample 1 — target: BATF3, bZIP domain (human); method: DHFR protein complementation; medium: yeast; relative to: wild-type JUN-FOS pair; reading: higher = stronger binding
Setting: single substitutions, most at no-binding floor
Starting sequence: JUN, bZIP domain (human); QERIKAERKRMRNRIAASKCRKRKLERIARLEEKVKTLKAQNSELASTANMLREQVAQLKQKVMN; partner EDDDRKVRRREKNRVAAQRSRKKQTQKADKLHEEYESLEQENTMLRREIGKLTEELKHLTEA
Change	binding fitness [natural log]
N42C	-0.0985
A57K	0.274
E32G	0.12
K36R	0.238
L38A	0.288
A46S	0.202
S47M	0.177
K39P	-0.641
E44T	0.141
Q55Y	-0.000618
A57G	0.254
S43E	0.249
M51Q	0.225
V56E	-0.388
T37W	0.188
K34R	0.274
A40P	-0.785
T37D	0.194
A40F	0.223
Q55S	0.0319
A49P	-0.834
K39I	0.105

Sample 2 — method: protein binding microarray; molecule type: double-stranded DNA, one strand shown; medium: in vitro; concentration: not given; relative to: not given; reading: higher = stronger binding
Target: Histone acetyltransferase KAT6A, winged helix 2, GST fusion (KAT6A, Homo sapiens, UniProt Q92794, residues 85-181)
Setting: 8-mer, flanks averaged, mean of 2 arrays, mostly near background
Residues (chain): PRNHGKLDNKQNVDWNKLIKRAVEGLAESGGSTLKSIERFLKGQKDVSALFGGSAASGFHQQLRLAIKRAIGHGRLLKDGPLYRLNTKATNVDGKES
Strand	E-score
CTATCTAC	-0.151
GAGGTTCC	0.047
GTCTTGAA	0.00534
TATCCACA	0.122
CTACGCGA	0.144
ACAGAAGC	0.0495
AACCGACT	-0.0185
TAACCTGA	-0.126
CAAATCCC	-0.0313
GGACAATA	-0.107
GACCCTAC	-0.0707
AATGCCTG	-0.133
ACTTGTCA	-0.106
CGGGGGTA	-0.0194
AGGGGATG	-0.0141
CATTCGTA	-0.179
AACGTACC	-0.228
GACGCACA	0.018
GATAACCC	-0.135
CACAGGCC	0.0123
GGAGCCTA	0.154

Sample 3 — target: CCNA2, cyclin fold, Cln2 fusion (human); method: yeast growth competition, sequencing; medium: yeast; setting: weak parent motif; relative to: not given; reading: higher = stronger binding
Starting sequence: SLBP docking peptide (human); ARYKRKLLINDFG
Change	normalised enrichment score
ARYKRKLLINDMG [F12M]	0.846
ARYKRKLLSNDFG [I9S]	2.44
ARYKRKRLINDFG [L7R]	1.15
ARYKRKLLINDFA [G13A]	1.18
ARYKRKLLINRFG [D11R]	1.88
ARYKRKLLYNDFG [I9Y]	2.16
ARYKRKLLINTFG [D11T]	2.08
ARYKRKLLIDDFG [N10D]	1.09
ARYKRKLLIEDFG [N10E]	1.35
ARYKRKLLINDFS [G13S]	-0.122
ARYKRKSLINDFG [L7S]	0.19
ARYKRKLLNNDFG [I9N]	1.4
ARYKRKCLINDFG [L7C]	1.59
AMYKRKLLINDFG [R2M]	0.994
ARWKRKLLINDFG [Y3W]	1.83
ARYKRMLLINDFG [K6M]	1.12
AVYKRKLLINDFG [R2V]	0.953
ARYKAKLLINDFG [R5A]	1.04
AHYKRKLLINDFG [R2H]	1.34
ARYKRKLGINDFG [L8G]	1.35
ARYKRKLLPNDFG [I9P]	1.64
ARYKRKLLICDFG [N10C]	0.577
ALYKRKLLINDFG [R2L]	1.3
ARYKEKLLINDFG [R5E]	0.37
ARLKRKLLINDFG [Y3L]	1.49

Sample 4 — method: protein-binding microarray; molecule type: double-stranded DNA, one strand shown; medium: in vitro; concentration: 250 nM; setting: 60-bp whole probe; with: salmon DNA 0.4 mg/ml; relative to: random background probes; reading: higher = stronger binding; shared flanks, not repeated: GCCTAGCAC … GTCTTGATTCGCTTGACGCTGCTG
Target: Interferon regulatory factor 5, full length, phosphomimetic (IRF5, Homo sapiens, UniProt Q13568-2, residues 1-514, K96S/S451D/S453D/S456D/S462D)
Strand	log fluorescence [z-score]
ACTCCTGTACATCTATGTAGGTGCTAG	-0.0935
TTAGATATCCGGTTTCGATTAGTGCTA	7.5
TTAGAACTGGGGTTTCGCTTAGTGCTA	2.39
GACGTTCTCCTACTGCTGACGTGCTAG	-0.322
TTTGCTTTCTTTTATGCTCTGTGCTAG	2.87
ATAGGTCTCCTTATCCTTTAGTGCTAG	0.0965
TTAGGTTCCCTTTTCGTTTAGTGCTAG	1.81
GACGATATCGGGACTGGCGACGTGCTA	0.991
TCACCTCTAGGTTTTCTACTGTGCTAG	0.361
AATTAATAACTCGTAGGATCGTGCTAG	0.0118
CACCGTCTTATTAAAAAACAGTGCTAG	0.453
GACGCTCTCAGTTTCGAGACGTGCTAG	4.88
GACCGTATCGGGACTGGGGACGTGCTA	0.983
TTAGGTATCGGTTTCCGTTAGTGCTAG	8.38
TCCAAATTGTCTCTGTCCCTGTGCTAG	0.115
TTTTTTTTCACTATTGCTTCGTGCTAG	3.5

Sample 5 — method: RNA Bind-n-Seq; molecule type: RNA; medium: in vitro; concentration: 365 nM; relative to: no-protein control; reading: higher = stronger binding
Target: RNA binding protein fox-1 homolog 2, RRM domain, GST-SBP tag (RBFOX2, Homo sapiens, UniProt O43251-10, residues 100-194)
Setting: natural RNA segment, single round, ends assumed
Residues (chain): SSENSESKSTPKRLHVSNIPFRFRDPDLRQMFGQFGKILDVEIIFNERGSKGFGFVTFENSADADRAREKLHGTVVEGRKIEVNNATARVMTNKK
Strand	RBNS enrichment (R)
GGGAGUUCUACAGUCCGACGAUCGGCUGUGCUGCCCUAGACCCGCCACACCAAGCCAUCCGCCCCUCACAGACCCUACAAGACGAUGUUAGGAAACACAUGCUUGCUGGCCUUGAAGGACACAGAGAGAAGUAUGGAAUUCUCGGGUGCCAA	0.779
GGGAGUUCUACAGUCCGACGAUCAACAACACCUCAUUCUUAACUGUGUGGCCAAUGUCAGGUAUACCAAAGCAUUCCUCUGACUGCUUUUUGGGGCAGUGUUGACAGGAGUGAGGCAUUUUGGAAACUCCAAGUGGAAUUCUCGGGUGCCAA	0.222
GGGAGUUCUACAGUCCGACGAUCGCCUUUUUUUAAAAAACAAAAACCACAAAAAUUCCCAAACCAUACUUGCUAAAAAUUCUGGUAAGUAUGUGCUUUUCUGUGGGGGUGGGAUUUGGAAGGGGGGUUGGGUUUGGAAUUCUCGGGUGCCAA	0.54
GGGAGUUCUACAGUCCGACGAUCAAUGAGACAAUCAUUUUAAGUUUUAAGAUAACAGAAGUGACCAAUGUAAUUUCACAACACCUAAGGAUUUUUUGGUUGAUCAGGUUACUGUAGAUUUUUACUGAUUGUCCUGGAAUUCUCGGGUGCCAA	0.544
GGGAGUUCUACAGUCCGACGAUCCCCAUCCGUGUACGUAUGUGGCAUUUCCAGGUAUGACUGAGUGUGAGAGACAUGUCAGAGGCUCUUCAGUGAUUUCUUGCUAUUGACCGAUGCUUCACUGUGCCAAAAGAUGGAAUUCUCGGGUGCCAA	2.37
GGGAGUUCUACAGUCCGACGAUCAGCUGGUAGGGACAUUACACCAGGUACCCCGUGGCUAUCCCUACCCAGUGUCGGUGGCCCGGCACAGGGCCGUGCUCUGUCGGACUGUACGGAUUGUUCAGCUUCAGACUUGGAAUUCUCGGGUGCCAA	0.349
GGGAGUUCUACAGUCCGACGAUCCUUGUGUUUUUCAGUGUGUGCCUCCCCGAGCCUCAGCCCCAAGCUGAUUUCUUAUCUGGAAAUGGUACACUGAAUUCUCUGGGUGGCUUUCUUGUGGCCCCAUGGGAUGCUGGAAUUCUCGGGUGCCAA	0.4
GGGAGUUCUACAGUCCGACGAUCCAUAACAUACUGAAACUAUUUAUAUUUUCUUUUUUAAGGAUAUUUAGAAAUUUUGUGUAUUAUAUGGAAAAAGAAAAAAAGCUUAAGUCUGUAGUCUUUAUGAUCCUAAAUGGAAUUCUCGGGUGCCAA	0.611
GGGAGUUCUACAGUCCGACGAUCUGUUUAUCUUGUGCAGAUAAACACAAAGAGAAGGUGCUUGCUAGCAGGGACACUGCUGCCAUGUCCCAACAAGCUGUUCAGUUUAAACUGCUGAAUGACAUUAUUUGAGCUGGAAUUCUCGGGUGCCAA	0.293
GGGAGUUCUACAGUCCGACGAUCCGCGGAUCAACCAGGCAGAGUUCUGUGGCGCCGCGUGGACAGCCGGAGCAGUUGGCCUGUGCUUGGAGGCCUCAGAUAGACCUGUGACCUGGUCUGGUCAGGCAAUGCCCUGGAAUUCUCGGGUGCCAA	0.382
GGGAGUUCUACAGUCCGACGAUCUGAAAGGUCCUGGGGAGAGCUUCGGGGCUCCCCCGAUGCCCAUCUCCAAUGCCAAUUCUUUGGUUUCUUCUUCUUGGCAGUGUUGAAGCUAGAACUCAGGGCGCUGAAUAUGGAAUUCUCGGGUGCCAA	0.311
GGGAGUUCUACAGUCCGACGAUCUCCUGUAAUAGACUCGGGUCCUGUCCACGGCCCUGGCCGCCCACAAUCCAGCCCACAAAUCCACAUGGCUGUUCCCAGCAGUGCUGUGGUACACUGUGACAGUGGCUCUAUGGAAUUCUCGGGUGCCAA	0.421

Sample 6 — method: RNAcompete; molecule type: RNA; medium: in vitro; concentration: 20 nM; setting: 7-mer, probes averaged, single round; relative to: mean of 7-mers; reading: higher = stronger binding
Target: PABPC1L2, full length, GST fusion (mouse, UniProt A0ABA7IW68)
Construct (chain): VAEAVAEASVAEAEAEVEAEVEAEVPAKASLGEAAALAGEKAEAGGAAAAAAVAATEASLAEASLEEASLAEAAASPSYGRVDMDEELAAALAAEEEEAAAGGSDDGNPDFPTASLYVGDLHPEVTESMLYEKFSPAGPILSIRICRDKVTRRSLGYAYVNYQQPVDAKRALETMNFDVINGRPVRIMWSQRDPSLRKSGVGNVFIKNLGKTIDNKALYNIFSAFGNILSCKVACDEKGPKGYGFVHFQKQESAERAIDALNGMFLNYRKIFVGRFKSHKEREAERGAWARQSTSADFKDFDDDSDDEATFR
Strand	7-mer Z-score
ACGCGAA	0.0225
ACCAGGA	0.102
UUCCAAC	-0.229
UAAGAAA	1.12
GAGGGAC	0.216
CCCAGUC	-0.364
GGUAAAU	0.492
CAGCAAC	-0.117
CCCGUGG	-0.249
AUCUCCA	-0.353
GUGAUGU	-0.26
GAUGCAG	-0.0899
UCGUAGA	-0.238
AGUGCCA	-0.00652
CGUGCUU	-0.206
AUUAGGA	0.195
CAAGGGA	0.311
UCUUACC	-0.409
AAACUCG	0.579
UUCGAAA	0.144
CGGUAAC	-0.166
UGCGACU	-0.13

Some of these lines once more (sample 1):
Change	binding fitness [natural log]
A40P	-0.785
E32G	0.12
T37D	0.194
A57G	0.254
S43E	0.249
K39I	0.105
V56E	-0.388
K34R	0.274
L38A	0.288
E44T	0.141
S47M	0.177
